Measured values pooled from the literature.
Compare with care: the assays were run in different laboratories. Values joined by “and” are separate records of one study, mostly repeats; a detail may differ. Numbers after ± are the reported error.
Nuclear receptor subfamily 2 group C member 2 ligand-binding domain: Nuclear receptor subfamily 2 group C member 2, ligand-binding domain (Homo sapiens, UniProt P49116)
UniProt P11247, sequence (whole entry, looked up): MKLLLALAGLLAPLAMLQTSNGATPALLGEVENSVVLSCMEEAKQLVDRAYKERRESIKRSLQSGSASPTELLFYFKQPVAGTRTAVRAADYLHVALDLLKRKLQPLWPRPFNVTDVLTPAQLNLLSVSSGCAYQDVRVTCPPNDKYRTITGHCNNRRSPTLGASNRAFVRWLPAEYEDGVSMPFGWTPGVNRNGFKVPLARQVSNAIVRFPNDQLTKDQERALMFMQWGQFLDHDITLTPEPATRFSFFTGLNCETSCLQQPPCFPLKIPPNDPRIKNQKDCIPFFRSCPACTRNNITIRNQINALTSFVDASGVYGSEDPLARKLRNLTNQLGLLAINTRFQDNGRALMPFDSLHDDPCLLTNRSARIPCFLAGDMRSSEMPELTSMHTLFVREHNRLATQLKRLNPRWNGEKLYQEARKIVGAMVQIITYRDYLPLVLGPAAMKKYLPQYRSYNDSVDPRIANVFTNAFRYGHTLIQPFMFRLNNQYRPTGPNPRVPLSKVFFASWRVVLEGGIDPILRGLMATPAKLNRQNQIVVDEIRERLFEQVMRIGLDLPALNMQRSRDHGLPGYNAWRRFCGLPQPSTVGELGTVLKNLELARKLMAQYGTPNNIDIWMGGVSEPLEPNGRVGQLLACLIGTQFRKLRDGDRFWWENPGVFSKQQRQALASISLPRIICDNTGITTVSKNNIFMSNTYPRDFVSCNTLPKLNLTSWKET
UniProt P49116, sequence (whole entry, looked up): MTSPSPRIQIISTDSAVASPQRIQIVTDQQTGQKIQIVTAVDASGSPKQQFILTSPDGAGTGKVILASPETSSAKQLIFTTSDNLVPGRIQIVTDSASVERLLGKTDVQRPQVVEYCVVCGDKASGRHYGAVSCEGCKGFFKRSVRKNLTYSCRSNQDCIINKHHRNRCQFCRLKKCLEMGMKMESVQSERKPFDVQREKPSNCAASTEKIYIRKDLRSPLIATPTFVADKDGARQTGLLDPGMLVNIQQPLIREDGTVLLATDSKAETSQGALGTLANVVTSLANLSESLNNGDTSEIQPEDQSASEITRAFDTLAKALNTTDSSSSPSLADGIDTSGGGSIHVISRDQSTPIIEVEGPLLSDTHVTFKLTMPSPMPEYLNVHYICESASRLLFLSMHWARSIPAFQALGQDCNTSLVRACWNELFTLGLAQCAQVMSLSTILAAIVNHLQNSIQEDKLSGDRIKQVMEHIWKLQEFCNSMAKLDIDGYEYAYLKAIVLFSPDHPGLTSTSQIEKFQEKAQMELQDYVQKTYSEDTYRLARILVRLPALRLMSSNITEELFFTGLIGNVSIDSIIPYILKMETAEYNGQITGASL
UniProt P27361, sequence (whole entry, looked up): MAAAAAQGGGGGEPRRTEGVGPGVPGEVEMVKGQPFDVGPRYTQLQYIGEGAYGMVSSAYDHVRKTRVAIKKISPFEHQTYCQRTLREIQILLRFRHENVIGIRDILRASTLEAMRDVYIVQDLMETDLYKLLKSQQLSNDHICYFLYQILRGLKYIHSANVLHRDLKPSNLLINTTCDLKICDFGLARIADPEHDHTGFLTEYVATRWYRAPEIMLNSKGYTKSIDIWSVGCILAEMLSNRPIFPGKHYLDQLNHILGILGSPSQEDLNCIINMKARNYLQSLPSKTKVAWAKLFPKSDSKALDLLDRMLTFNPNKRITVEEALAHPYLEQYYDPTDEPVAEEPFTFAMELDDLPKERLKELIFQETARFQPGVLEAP
UniProt O94921, sequence (whole entry, looked up): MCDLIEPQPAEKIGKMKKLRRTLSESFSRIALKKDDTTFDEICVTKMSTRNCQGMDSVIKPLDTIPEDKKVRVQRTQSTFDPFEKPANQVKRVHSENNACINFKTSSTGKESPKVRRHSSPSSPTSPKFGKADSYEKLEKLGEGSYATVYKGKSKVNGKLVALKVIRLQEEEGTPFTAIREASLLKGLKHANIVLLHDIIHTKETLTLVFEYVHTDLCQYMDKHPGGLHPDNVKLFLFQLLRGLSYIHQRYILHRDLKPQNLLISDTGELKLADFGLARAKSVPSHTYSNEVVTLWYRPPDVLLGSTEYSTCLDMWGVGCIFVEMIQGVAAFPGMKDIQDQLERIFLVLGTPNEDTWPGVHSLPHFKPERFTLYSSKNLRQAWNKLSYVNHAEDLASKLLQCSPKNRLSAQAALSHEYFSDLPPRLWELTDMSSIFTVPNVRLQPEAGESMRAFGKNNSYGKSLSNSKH
UniProt P04746, sequence (whole entry, looked up): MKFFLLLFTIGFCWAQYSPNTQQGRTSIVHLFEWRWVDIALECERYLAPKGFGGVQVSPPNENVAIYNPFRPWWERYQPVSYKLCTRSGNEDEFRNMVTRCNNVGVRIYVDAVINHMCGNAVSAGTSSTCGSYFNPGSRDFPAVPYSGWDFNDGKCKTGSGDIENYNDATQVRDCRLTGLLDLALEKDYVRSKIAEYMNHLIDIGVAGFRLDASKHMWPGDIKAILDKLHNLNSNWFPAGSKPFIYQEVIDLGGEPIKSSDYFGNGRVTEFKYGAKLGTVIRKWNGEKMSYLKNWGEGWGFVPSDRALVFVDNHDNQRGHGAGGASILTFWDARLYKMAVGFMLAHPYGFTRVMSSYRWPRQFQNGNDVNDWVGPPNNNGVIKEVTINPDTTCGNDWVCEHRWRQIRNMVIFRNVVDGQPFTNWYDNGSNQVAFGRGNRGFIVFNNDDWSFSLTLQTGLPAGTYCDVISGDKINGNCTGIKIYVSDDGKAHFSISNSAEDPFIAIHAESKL
UniProt Q16774, sequence (whole entry, unmodified, looked up): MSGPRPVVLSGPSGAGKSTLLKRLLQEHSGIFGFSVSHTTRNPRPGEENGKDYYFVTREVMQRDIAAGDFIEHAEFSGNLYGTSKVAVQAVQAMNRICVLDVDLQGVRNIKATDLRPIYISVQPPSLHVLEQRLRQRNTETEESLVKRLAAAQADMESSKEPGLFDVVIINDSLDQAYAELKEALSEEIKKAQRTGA

Structure (SMILES)	tested on	assay	system	conditions	scale	measurement	result
CC[C@H](C)C(=O)O[C@H]1C[C@H](O)C=C2C=C[C@H](C)[C@H](CC[C@@H](O)C[C@@H](O)CC(=O)O)[C@H]21	COS-7			10 µM, 24 h, 0.1% DMSO, unit not given	baseline: vehicle control	necrotic cells	0.65 ± 0.26
C=CC(=O)N1CCC[C@@H](n2nc(-c3ccc(Oc4ccccc4)cc3)c3c(N)ncnc32)C1	MAPK3 (Homo sapiens, UniProt P27361)			0.1 µM		remaining activity	260%
CC[C@H](C)[C@@H]1NC(=O)[C@H]([C@@H](C)CC)NC(=O)[C@@H](Cc2ccc(O)cc2)NC(=O)CSC[C@@H](C(N)=O)NC(=O)[C@H](CCCNC(=N)N)NC(=O)[C@H](CCCCN)NC(=O)[C@H](CC(C)C)NC(=O)[C@H](CO)NC(=O)[C@H](CO)NC(=O)[C@H](CC(C)C)NC(=O)[C@H](Cc2ccccc2)NC(=O)[C@H](C(C)C)NC(=O)CNC(=O)[C@H](CC(C)C)NC(=O)[C@@H]2CCCN2C(=O)[C@H]([C@@H](C)O)NC(=O)[C@H](CC(=O)O)NC1=O	VPS35/VPS29 (Homo sapiens, UniProt Q96QK1+Q9UBQ0)	binding, isothermal titration calorimetry		25 °C		ΔH	-10.5 ± 0.4 kcal/mol
Oc1ccc([C@@H]2c3c(O)cc(O)cc3[C@@H]3c4c(cc(O)c5c4[C@@H]2[C@H](c2ccc(O)cc2)[C@H]5c2cc(O)cc4c2[C@@H](c2cc(O)cc(O)c2)[C@H](c2ccc(O)cc2)O4)O[C@H]3c2ccc(O)cc2)cc1	Pancreatic alpha-amylase (Homo sapiens, UniProt P04746)	enzyme activity, inhibitor				cooperativity factor alpha	10.2
C[C@H](N)C(=O)N[C@@H](CCCNC(=N)N)C(=O)N[C@H](C(=O)N[C@@H](C)C(=O)N[C@@H](CCC(N)=O)C(=O)N[C@H](C(=O)N[C@@H](C)C(=O)N[C@@H](CCCNC(=N)N)C(=O)N[C@@H](CCCCN)C(=O)N[C@@H](CO)C(=O)O)[C@@H](C)O)[C@@H](C)O	Transcriptional regulator ATRX (ATRX, Homo sapiens, UniProt P46100, F284Y/K251R)	isothermal titration calorimetry		concentration not given, pH 7.5, 25.0 °C		binding entropy	0.37 cal/mol/K
CC[C@H](C)[C@H](NC(=O)[C@H](CCC(=O)O)NC(=O)[C@H](CCC(=O)O)NC(=O)[C@@H]1CCCN1C(=O)[C@H](CC(=O)O)NC(=O)[C@H](C)NC(=O)[C@H](CCC(N)=O)NC(=O)[C@@H](NC(=O)[C@H](C)NC(=O)[C@@H](NC(=O)[C@H](CO)NC(=O)[C@@H](NC(=O)[C@H](CCCCN)NC(=O)[C@@H](N)Cc1ccc(O)cc1)[C@@H](C)O)C(C)C)[C@@H](C)O)C(=O)N[C@H](C(=O)N[C@H](C(=O)N[C@@H](CC(C)C)C(=O)N[C@@H](COP(=O)(O)O)C(=O)N[C@@H](CC(=O)O)C(=O)N[C@@H](COP(=O)(O)O)C(=O)N[C@@H](CC(=O)O)C(=O)O)C(C)C)[C@@H](C)CC	Small ubiquitin-related modifier 1, residues 17-97 (Homo sapiens, UniProt P63165, C52A)	isothermal titration calorimetry		concentration not given, pH 7.4, N-terminally truncated SUMO1		enthalpy change (ΔH)	1.61 ± 0.35 kcal/mol
CC(C)OCCn1c(=S)[nH]c(=O)c2[nH]ccc21	Myeloperoxidase (Mus musculus, UniProt P11247)		mouse, zymosan or thioglycolate peritonitis, peritoneal fluid	60 mg/kg	baseline: peritonitis vehicle	MPO activity	45.4% and 38.1% and 45.9% and 40.3% and 29.4% and 32.7%
C=CC(=O)N1CCN(c2nc(OC[C@@H]3CCCN3C)nc3c(F)c(-c4nc(N)cc(C)c4C(F)(F)F)c(Cl)cc23)[C@@H](C)C1	GTPase KRas, GDP-bound (KRAS, Homo sapiens, UniProt P01116, G13D)	SPR				dissociation rate constant koff	0.0803 ± 0.0045 s⁻¹
COc1cc(C(=O)NC2CCCNC2)cc(OC)c1OC (stereo not drawn)	Nuclear receptor subfamily 2 group C member 2 ligand-binding domain	SPR imaging		600 nM		koff	4.51e-08 s⁻¹
CCN(CC)CCCC(C)Nc1ccnc2cc(Cl)ccc12 (stereo not drawn)	COS-7			50 µM, 24 h, 0.1% DMSO, unit not given	baseline: vehicle control	confluence	0.88 ± 0.12
O=C(O)c1cc(O)c2c(c1)C(=O)c1cccc(O[C@@H]3O[C@H](CO)[C@@H](O)[C@H](O)[C@H]3O)c1C2=O	HepaRG co-cultured with HK-2	MTT		266.67 µM, 24 h	baseline: untreated control	cell viability	99.1 ± 8.96%
CC1CCCN(C(=O)c2cc3ncccn3n2)C1 (stereo not drawn)	E3 SUMO-protein ligase PIAS1 (PIAS1, Homo sapiens, UniProt O75925)	binding, affinity selection mass spectrometry			baseline: other proteins in batch	log fold enrichment	0.0363
C[S+](CC[C@H](N)C(=O)O)C[C@H]1O[C@@H](n2cnc3c(N)ncnc32)[C@H](O)[C@@H]1O (stereo partly drawn)	O-methyltransferase (Sorghum bicolor, UniProt A0A1B6PFV1)			concentration not given, added: PTR+		ΔG of binding	-5.26 kcal/mol
C=CC(=O)N1CCC(C(=O)NCC(=O)N2CCN(c3nc(-c4cnc(N)nc4C(F)F)nc(N4CCOCC4)n3)CC2)CC1	CDK14 (Homo sapiens, UniProt O94921)	KINOMEscan		1 µM		remaining binding	100%
CO[C@@H]1[C@@H](OC(N)=O)[C@@H](O)[C@H](Oc2ccc3c(O)c(NC(=O)c4ccc(O)c(CC=C(C)C)c4)c(=O)oc3c2C)OC1(C)C	Nuclear receptor subfamily 2 group C member 2 ligand-binding domain	SPR imaging		600 nM		koff	1.96e-05 s⁻¹
CCCC[C@H]1CN(c2cccc(OC(F)(F)F)c2)C(=O)CN1Cc1cncn1Cc1ccc(F)c(C#N)c1	Cryptococcus neoformans farnesyltransferase	enzyme activity, inhibitor, fluorescence		added: 1 µM FPP, 0.5 µM dansylated peptide		IC50	180 ± 100 nM
Nc1ncnc2c1ncn2[C@@H]1O[C@H](COP(=O)(O)OP(=O)(O)O)[C@@H](O)[C@H]1O	GUK1 (Homo sapiens, UniProt Q16774, S18A)	binding, ITC				ΔH	-6.3 ± 0.45 kcal/mol
CC(=O)N[C@@H](COP(=O)(O)O)C(=O)N1CCC[C@H]1C(=O)N[C@H](C(=O)N[C@@H](Cc1ccccc1)C(N)=O)[C@@H](C)O	Breast cancer type 1 susceptibility protein, tandem BRCT domains (BRCA1, Homo sapiens, UniProt P38398)	binding, isothermal titration calorimetry		BRCT domain, BACH1 peptide		ΔH	-14 ± 1.1 kcal/mol

Some of these lines once more:
Structure (SMILES)	tested on	assay	system	conditions	scale	measurement	result
O=C(O)c1cc(O)c2c(c1)C(=O)c1cccc(O[C@@H]3O[C@H](CO)[C@@H](O)[C@H](O)[C@H]3O)c1C2=O	HepaRG co-cultured with HK-2	MTT		266.67 µM, 24 h	baseline: untreated control	cell viability	99.1 ± 8.96%
CO[C@@H]1[C@@H](OC(N)=O)[C@@H](O)[C@H](Oc2ccc3c(O)c(NC(=O)c4ccc(O)c(CC=C(C)C)c4)c(=O)oc3c2C)OC1(C)C	Nuclear receptor subfamily 2 group C member 2 ligand-binding domain	SPR imaging		600 nM		koff	1.96e-05 s⁻¹
CC[C@H](C)C(=O)O[C@H]1C[C@H](O)C=C2C=C[C@H](C)[C@H](CC[C@@H](O)C[C@@H](O)CC(=O)O)[C@H]21	COS-7			10 µM, 24 h, 0.1% DMSO, unit not given	baseline: vehicle control	necrotic cells	0.65 ± 0.26
